# Published values collected from several papers.
# Compare with care: the assays were run in different laboratories.
Structure (SMILES),test,test system,conditions,solubility
C[C@]12C(=O)[C@](C)(C(c3ccccc3)=C1c1ccccc1)C1(Br)C(=O)N(CCN)C(=O)C12 (some centres unmarked),HPLC,water,8 °C,3900 µg/mL
CCCCCc1cc(OC(=O)C(NC(=O)CCC(=O)O)C(C)C)c2c(c1)OC(C)(C)C1CCC(C)=CC21 (centres unmarked),shake flask,water,"24 h, 25 °C",37.6 µg/mL
CCCCCCCc1ccc(NC(=O)CCCN[C@H](C(N)=O)[C@H](O[C@@H]2O[C@H](CN)[C@@H](O)[C@H]2O)[C@H]2O[C@@H](n3ccc(=O)[nH]c3=O)[C@H](O)[C@@H]2O)cc1,,water,,110 µg/mL
O=C(NCCNCCO)c1cn(Cc2ccccc2)c2cc(OCc3ccc(C(F)(F)F)cc3)c(Cl)cc2c1=O,shake flask,PBS,"24 h, pH 6.5, 25 °C",< 0.005 mM
C[n+]1ccc(-c2cc[n+](C)cc2)cc1,absorbance,water,pH 7,2690 mM
CC(=O)N[C@H]1CSC(=O)[C@H](Cc2ccccc2)NC(=O)[C@H](Cc2ccccc2)NC(=O)COCCOCCNC1=O,,water,,~10 mM
O=c1c2ccccc2[se]n1CCCCn1[se]c2ccccc2c1=O,HPLC,water,"24 h, 25 °C",1 to 3 µg/mL
COc1cccc2c1C(=O)c1c(O)c3c(c(O)c1C2=O)CC(O)(C(=O)CO)CC3OC1CC(NC(=O)OC2C=CCCC(C)(C(=O)NCC(=O)O)CC2)C(O)C(C)O1 (centres unmarked),,PBS,,28000 µg/mL
Nc1cnc(Cl)cc1NC(=O)Nc1cc(C(F)F)ns1,HPLC,PBS,"24 h, pH 7.4",≥ 0.1 mM
O=P([O-])([O-])Oc1ccc(-c2cc(=S)ss2)cc1.[Na+].[Na+],HPLC,water,"24 h, 25 °C",1940 µg/mL
O=C1C(O)=C(Nc2ccccc2Cl)C(=O)c2ccccc21,,water,12 h,0.003 mM

# A few entries again:
Structure (SMILES),test,test system,conditions,solubility
C[n+]1ccc(-c2cc[n+](C)cc2)cc1,absorbance,water,pH 7,2690 mM
